Experimental data pooled from the literature.
Parts stem from different laboratories: compare values within a part only. Positions count from the first letter of the parent shown.

Study 1
Target: MAFF, bZIP domain (human)
Method: DHFR protein complementation
Sample: yeast
Setting: single substitutions, most at no-binding floor
Reference: wild-type JUN-FOS pair
Reading: higher = stronger binding
Starting sequence: JUN, bZIP domain (human); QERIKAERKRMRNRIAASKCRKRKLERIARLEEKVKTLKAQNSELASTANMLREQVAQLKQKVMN; partner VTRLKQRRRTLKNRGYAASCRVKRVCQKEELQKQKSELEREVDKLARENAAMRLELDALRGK
The binding fitness of `A46S` is reported as -1.55 natural log.
With `L38N` the binding fitness was -1.5 natural log.
`K39Q` has a binding fitness of -1.47 natural log.
With `L59H` the binding fitness was -1.56 natural log.
For `N42P`, the binding fitness was -1.55 natural log.
`R30P` has a binding fitness of -1.44 natural log.
`K39G` gave a binding fitness of -1.49 natural log.
`L38S` has a binding fitness of -1.44 natural log.
`L59C` gave a binding fitness of -1.56 natural log.
With `V56P` the binding fitness was -1.5 natural log.
`V56E` has a binding fitness of -1.39 natural log.
The binding fitness of `L45N` is reported as -1.54 natural log.
The binding fitness of `L38Q` is reported as -1.49 natural log.
`V35P` has a binding fitness of -1.49 natural log.
`I28C` gave a binding fitness of -1.37 natural log.
For `N42M`, the binding fitness was -1.3 natural log.
`A49E` has a binding fitness of -1.42 natural log.
`A57R` gave a binding fitness of -1.41 natural log.
For `A57Q`, the binding fitness was -1.4 natural log.
The binding fitness of `I28W` is reported as -1.49 natural log.
The binding fitness of `K39E` is reported as -1.37 natural log.
The binding fitness of `A49Q` is reported as -1.49 natural log.
`E54I` gave a binding fitness of -1.52 natural log.
For `E54N`, the binding fitness was -1.43 natural log.
With `R53T` the binding fitness was -1.45 natural log.

Study 2
Target: Sal-like protein 4, full length isoform A (SALL4, Homo sapiens, UniProt Q9UJQ4, residues 1-1053)
Sequence of UniProt Q9UJQ4 (whole entry, looked up): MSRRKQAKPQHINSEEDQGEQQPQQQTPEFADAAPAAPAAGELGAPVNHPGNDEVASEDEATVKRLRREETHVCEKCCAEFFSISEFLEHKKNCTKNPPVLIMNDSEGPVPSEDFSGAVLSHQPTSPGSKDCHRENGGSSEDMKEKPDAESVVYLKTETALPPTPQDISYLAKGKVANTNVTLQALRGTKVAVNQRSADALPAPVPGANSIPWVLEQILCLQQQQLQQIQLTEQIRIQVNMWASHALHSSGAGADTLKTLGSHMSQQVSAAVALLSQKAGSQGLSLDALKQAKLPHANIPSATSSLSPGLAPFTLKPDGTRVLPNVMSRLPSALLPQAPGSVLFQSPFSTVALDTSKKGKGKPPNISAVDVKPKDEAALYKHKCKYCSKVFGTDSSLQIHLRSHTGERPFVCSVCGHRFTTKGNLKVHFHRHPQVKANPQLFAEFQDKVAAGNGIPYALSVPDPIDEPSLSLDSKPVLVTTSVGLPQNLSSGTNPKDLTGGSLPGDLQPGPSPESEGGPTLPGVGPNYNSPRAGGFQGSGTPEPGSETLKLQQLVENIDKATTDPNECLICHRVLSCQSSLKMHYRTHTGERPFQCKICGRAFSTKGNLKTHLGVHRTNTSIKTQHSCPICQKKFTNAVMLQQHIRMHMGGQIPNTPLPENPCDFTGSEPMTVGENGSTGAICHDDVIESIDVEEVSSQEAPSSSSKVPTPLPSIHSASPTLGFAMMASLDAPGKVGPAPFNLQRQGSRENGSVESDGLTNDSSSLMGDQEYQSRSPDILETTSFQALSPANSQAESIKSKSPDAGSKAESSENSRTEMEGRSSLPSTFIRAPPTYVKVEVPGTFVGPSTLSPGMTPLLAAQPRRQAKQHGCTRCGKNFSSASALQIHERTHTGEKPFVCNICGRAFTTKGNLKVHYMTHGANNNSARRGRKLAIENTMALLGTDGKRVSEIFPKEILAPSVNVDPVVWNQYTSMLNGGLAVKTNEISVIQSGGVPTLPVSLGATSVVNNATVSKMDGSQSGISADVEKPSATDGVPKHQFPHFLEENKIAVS
Method: universal PBM
Form: double-stranded DNA, one strand shown
Sample: in vitro
Tested at: 600 nM
Setting: 8-mer, flanks averaged, mean of replicates
Reading: higher = stronger binding
`GATGGTGC` gave an E-score of -0.263.
With `ACCTGCTA` the E-score was 0.0143.
`CAAACCCG` gave an E-score of -0.215.
The E-score of `ATACTGAA` is reported as 0.242.
`AACCTCGT` has an E-score of 0.0578.
The E-score of `AATTCGAG` is reported as 0.0781.
`CGCCCTTA` gave an E-score of -0.126.
`ATCTTCGC` has an E-score of 0.0437.
For `GCGTAGAC`, the E-score was -0.132.
`ACTCCACC` gave an E-score of -0.0466.
`CGTCTCTA` gave an E-score of -0.161.
With `GCCGACGA` the E-score was -0.15.
`AAGAAAGC` gave an E-score of -0.145.
The E-score of `CATCGGCA` is reported as -0.108.
For `CATGGACA`, the E-score was -0.0836.
`GTCGTCAC` gave an E-score of 0.0423.
`CCACGCTC` has an E-score of -0.351.
With `CGGCAGCA` the E-score was -0.188.
`CTAAAGCC` has an E-score of -0.0727.
The E-score of `AGGATTCC` is reported as -0.166.
With `GAGAATGC` the E-score was -0.0759.
With `GGCTCTCA` the E-score was -0.166.
`AATCGGAG` has an E-score of -0.0107.

Study 3
Target: Histone acetyltransferase KAT6A, winged helix 2, GST fusion (KAT6A, Homo sapiens, UniProt Q92794, residues 85-181)
Method: protein binding microarray
Form: double-stranded DNA, one strand shown
Sample: in vitro
Tested at: not given
Setting: 8-mer, flanks averaged, mean of 2 arrays, mostly near background
Reference: not given
Reading: higher = stronger binding
Residues (chain): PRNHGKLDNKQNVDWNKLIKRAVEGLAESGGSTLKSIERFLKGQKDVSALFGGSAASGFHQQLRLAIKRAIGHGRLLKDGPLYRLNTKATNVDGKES
With `AATATAGG` the E-score was -0.00941.
`CGAGACGC` has an E-score of -0.00374.
`CATCGGCG` has an E-score of 0.0566.
With `CCATACCC` the E-score was -0.00787.
`AAGATGCG` has an E-score of -0.116.
With `CCGGTACC` the E-score was -0.0312.
With `GTTCTCAA` the E-score was 0.0739.
The E-score of `CAATAGAG` is reported as -0.105.
The E-score of `GACGCTAA` is reported as -0.0836.
`AGTCGAGC` gave an E-score of -0.072.
With `ACACATTG` the E-score was -0.039.
For `CACGAGGC`, the E-score was 0.185.
`GCACTATA` gave an E-score of 0.0305.
The E-score of `ACAAACTA` is reported as 0.0685.
`GGCATACA` gave an E-score of 0.115.
The E-score of `CTGGACTA` is reported as -0.0425.
The E-score of `ACCGGGAG` is reported as -0.108.
`CGACATAC` gave an E-score of -0.115.
`AATCATGC` gave an E-score of -0.041.
With `CCAGCACA` the E-score was 0.106.
The E-score of `GATGGAGA` is reported as -0.00789.

Study 4
Target: CCNB3, cyclin fold, Cln2 fusion (human)
Method: yeast growth competition, sequencing
Sample: yeast
Setting: weak parent motif
Reference: not given
Reading: higher = stronger binding
Starting sequence: CDKN1A docking peptide (human); SKACRRLFGPVDS; partner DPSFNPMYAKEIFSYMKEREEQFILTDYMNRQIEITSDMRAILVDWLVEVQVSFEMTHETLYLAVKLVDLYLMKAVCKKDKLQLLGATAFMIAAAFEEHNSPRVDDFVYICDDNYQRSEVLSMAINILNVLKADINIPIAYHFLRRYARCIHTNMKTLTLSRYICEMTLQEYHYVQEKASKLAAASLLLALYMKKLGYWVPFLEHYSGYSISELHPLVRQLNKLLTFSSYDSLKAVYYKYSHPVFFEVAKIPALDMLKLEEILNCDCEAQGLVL
For `A3L`, “normalised enrichment score” read 0.221.
Under “normalised enrichment score”, `D12I` is recorded as 0.582.
`V11K`: “normalised enrichment score” 0.261.
Under “normalised enrichment score”, `P10N` is recorded as 0.529.
`P10E`: “normalised enrichment score” 0.425.
Under “normalised enrichment score”, `R5P` is recorded as -0.0667.
`P10T` — result for “normalised enrichment score”: 0.627.
For `V11Q`, “normalised enrichment score” read 0.66.
Under “normalised enrichment score”, `S13A` is recorded as 0.75.
`P10S`: “normalised enrichment score” 0.604.
For `A3V`, “normalised enrichment score” read 1.19.
For `F8K`, “normalised enrichment score” read 0.123.
For `K2C`, “normalised enrichment score” read 0.605.
Under “normalised enrichment score”, `C4F` is recorded as 0.0369.
`D12C`: “normalised enrichment score” 0.366.
Under “normalised enrichment score”, `A3W` is recorded as 0.0841.
Under “normalised enrichment score”, `C4G` is recorded as 0.289.
For `C4Q`, “normalised enrichment score” read 0.443.
For `C4Y`, “normalised enrichment score” read -0.0164.
`A3T` — result for “normalised enrichment score”: 0.534.
`G9N`: “normalised enrichment score” 0.3.
`D12P` — result for “normalised enrichment score”: 0.433.
For `L7K`, “normalised enrichment score” read 0.333.
Under “normalised enrichment score”, `D12R` is recorded as 0.293.
`R6S` — result for “normalised enrichment score”: 0.292.

Study 5
Target: UBE2E1 UBC core domain (UniProt P51965)
Sequence of UniProt P51965 (whole entry, looked up): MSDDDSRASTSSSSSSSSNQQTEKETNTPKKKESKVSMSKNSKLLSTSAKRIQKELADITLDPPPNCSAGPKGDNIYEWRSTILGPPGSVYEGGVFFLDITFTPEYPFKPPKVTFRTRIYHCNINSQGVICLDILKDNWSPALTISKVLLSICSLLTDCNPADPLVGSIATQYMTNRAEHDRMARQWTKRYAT
Method: yeast two-hybrid
Sample: yeast
Setting: mostly zero background
Reference: not given
Reading: higher = stronger interaction
B1: MARCHF2 RING domain (UniProt Q9P0N8); chain RLLSTVIRALDTPSDGPFCRICHEGANGECLLSPCGCTGTLGAVHKSCLEKWLSSSNTSYCELCHTEFAVEKRPRPLTEWL
B2: NHLRC1 RING domain (UniProt Q6VVB1); chain MREAEISLLECKVCFEKFGHRQQRRPRNLSCGHVVCLACVAALAHPRTLALECPFCRRACRGCDTSD
B3: UBE4B RING domain (UniProt O95155); chain KNARAEIDYSDAPDEFRDPLMDTLMTDPVRLPSGTIMDRSIILRHLLNSPTDPFNRQTLTESMLEPVPELKEQIQAWMREKQNSDH
B4: RNF32 RING domain (UniProt Q9H0A6); chain VQALRRETHECSICLAPLSAAGGQRVGAGRRSREMALLSCSHVFHHACLLALEEFSVGDRPPFHACPLCRSCYQKKILEC
B5: RNF7 RING domain (UniProt Q9UBF6); chain AICRVQVMDACLRCQAENKQEDCVVVWGECNHSFHNCCMSLWVKQNNRCPLCQQDWVVQRIGK
B6: RNF17 RING domain (UniProt Q9BXT8); chain SQPWGAAEIQCTRCGRRVSRSSGHHCELQCGHAFCELCLLMTEECTTIICPDCEVATAVNTRQR
B7: SHPRH RING domain (UniProt Q149N8); chain KTSGGVNPEPCPICARQLGKQWAVLTCGHCFCNECISIIIEQYSVGSHRSSIKCAICRQTTSHKEISY
B8: TRIM34 RING domain (UniProt Q9BYJ4); chain ILLNVQEEVTCPICLELLTEPLSLDCGHSLCRACITVSNKEAVTSMGGKSSCPVCGISYSFEHLQA
B9: RNF130 RING domain (UniProt Q86XS8); chain DKETDPDFDHCAVCIESYKQNDVVRILPCKHVFHKSCVDPWLSEHCTCPMCKLNILKALGIV
`B1 (MARCHF2 RING domain)` — result for “lacZ reporter activity”: 0.
`B2 (NHLRC1 RING domain)` — result for “lacZ reporter activity”: 0.
`B3 (UBE4B RING domain)`: “lacZ reporter activity” 0.
`B4 (RNF32 RING domain)`: “lacZ reporter activity” 0.
For `B5 (RNF7 RING domain)`, “lacZ reporter activity” read 0.
Under “lacZ reporter activity”, `MEEMEEELKCPVCGSFYREPIILPCSHNLCQACARNILVQTPESESPQSHRAAGSGVSDY (TRIM9 RING domain (UniProt Q9C026))` is recorded as 0.
For `B6 (RNF17 RING domain)`, “lacZ reporter activity” read 0.
`EIKDYKARLTCPCCNMRKKDAVLTKCFHVFCFECVKTRYDTRQRKCPKCNAAFGANDFHR (RNF20 RING domain (UniProt Q5VTR2))` — result for “lacZ reporter activity”: 0.
`KITELNPHLMCALCGGYFIDATTIVECLHSFCKTCIVRYLETNKYCPMCDVQVHKTRPLL (PCGF2 RING domain (UniProt P35227))`: “lacZ reporter activity” 0.
`B7 (SHPRH RING domain)`: “lacZ reporter activity” 0.
`B8 (TRIM34 RING domain)`: “lacZ reporter activity” 0.
Under “lacZ reporter activity”, `B9 (RNF130 RING domain)` is recorded as 4900.

A few entries again (study 4):
`P10T` — result for “normalised enrichment score”: 0.627.
For `V11Q`, “normalised enrichment score” read 0.66.
Under “normalised enrichment score”, `S13A` is recorded as 0.75.
`P10S`: “normalised enrichment score” 0.604.
For `A3V`, “normalised enrichment score” read 1.19.
For `F8K`, “normalised enrichment score” read 0.123.
For `K2C`, “normalised enrichment score” read 0.605.
Under “normalised enrichment score”, `C4F` is recorded as 0.0369.
`D12C`: “normalised enrichment score” 0.366.
Under “normalised enrichment score”, `A3W` is recorded as 0.0841.
Under “normalised enrichment score”, `C4G` is recorded as 0.289.
For `C4Q`, “normalised enrichment score” read 0.443.
For `C4Y`, “normalised enrichment score” read -0.0164.
`A3T` — result for “normalised enrichment score”: 0.534.
`G9N`: “normalised enrichment score” 0.3.
`D12P` — result for “normalised enrichment score”: 0.433.
For `L7K`, “normalised enrichment score” read 0.333.
Under “normalised enrichment score”, `D12R` is recorded as 0.293.
